# Measurements of several laboratories.
# Each line is one published result; not all experiments were run side by side. Numbers after ± are the reported error.
Compound,system,conditions,tissue uptake [%ID/g]
CCCC[C@H](NC(=O)CCCCCCCNC(=O)c1ccc(NN)nc1)C(=O)N[C@H]1CC(=O)NCCCC[C@@H](C(N)=O)NC(=O)[C@H](Cc2c[nH]c3ccccc23)NC(=O)[C@H](CCCNC(=N)N)NC(=O)[C@@H](Cc2ccccc2)NC(=O)[C@H](Cc2c[nH]cn2)NC1=O [technetium-99m labelled],"C57 mouse, B16/F1 melanoma, stomach","2 h, with: NDP-MSH 10 µg (6.07 nmol) co-injected",0.56 ± 0.1
N=C(N)NCCC[C@@H]1NC(=O)[C@H](CC(=O)NC23CNCCNCC(N)(CNCCNC2)CNCCNC3)NC(=O)[C@@H](Cc2ccccc2)NC(=O)[C@H](CC(=O)O)NC(=O)CNC1=O [copper-64 labelled],"Nu/Nu mouse, male, tumour-bearing, bone","intravenous, 10 µCi, 1 h",2.28 ± 1.44
CCCC[C@H](NC(=O)CNC(=O)CNC(=O)c1ccc(NN)nc1)C(=O)N[C@H]1CC(=O)NCCCC[C@@H](C(N)=O)NC(=O)[C@H](Cc2c[nH]c3ccccc23)NC(=O)[C@H](CCCNC(=N)N)NC(=O)[C@@H](Cc2ccccc2)NC(=O)[C@H](Cc2c[nH]cn2)NC1=O [technetium-99m labelled],"C57 mouse, B16/F1 melanoma-bearing, kidneys","intravenous, 24 h",1.28 ± 0.28
N=C(N)NCCC[C@@H]1NC(=O)[C@H](CCCCNC(=O)CC[C@H](NC(=O)CCOCCOCCOCCOCCNC(=O)CC[C@H](NC(=O)CN2CCN(CC(=O)O)CCN(CC(=O)O)CCN(CC(=O)O)CC2)C(=O)NCCOCCOCCOCCOCCC(=O)N[C@@H](CCC(=O)NCCCC[C@@H]2NC(=O)[C@@H](Cc3ccccc3)NC(=O)[C@H](CC(=O)O)NC(=O)CNC(=O)[C@H](CCCNC(=N)N)NC2=O)C(=O)NCCCC[C@@H]2NC(=O)[C@@H](Cc3ccccc3)NC(=O)[C@H](CC(=O)O)NC(=O)CNC(=O)[C@H](CCCNC(=N)N)NC2=O)C(=O)NCCCC[C@@H]2NC(=O)[C@@H](Cc3ccccc3)NC(=O)[C@H](CC(=O)O)NC(=O)CNC(=O)[C@H](CCCNC(=N)N)NC2=O)NC(=O)[C@@H](Cc2ccccc2)NC(=O)[C@H](CC(=O)O)NC(=O)CNC1=O [indium-111 labelled],"female athymic nude mice, brain","intravenous, 3 µCi, 72 h, U-87 MG glioma xenograft",0.02 ± 0.01
N=C(N)NCCC[C@@H]1NC(=O)[C@H](CCCCNC(=O)CNC(=O)CNC(=O)CNC(=O)CC[C@H](NC(=O)c2ccc(NN=Cc3ccccc3S(=O)(=O)O)nc2)C(=O)NCC(=O)NCC(=O)NCC(=O)NCCCC[C@@H]2NC(=O)[C@@H](Cc3ccccc3)NC(=O)[C@H](CC(=O)O)NC(=O)CNC(=O)[C@H](CCCNC(=N)N)NC2=O)NC(=O)[C@@H](Cc2ccccc2)NC(=O)[C@H](CC(=O)O)NC(=O)CNC1=O [technetium-99m labelled],"athymic nu/nu mouse, female, MDA-MB-435 xenograft, tumour","intravenous, 2 µCi, 60 min",7.86 ± 2.23
N=C(N)NCCC[C@@H]1NC(=O)[C@H](CCCCNC(=O)CC[C@H](NC(=O)CCOCCOCCOCCOCCNC(=O)CN2CCN(CC(=O)O)CCN(CC(=O)O)CCN(CC(=O)O)CC2)C(=O)NCCCC[C@@H]2NC(=O)[C@@H](Cc3ccccc3)NC(=O)[C@H](CC(=O)O)NC(=O)CNC(=O)[C@H](CCCNC(=N)N)NC2=O)NC(=O)[C@@H](Cc2ccccc2)NC(=O)[C@H](CC(=O)O)NC(=O)CNC1=O [indium-111 labelled],"female athymic nude mice, intestine","intravenous, 3 µCi, 1 h, U-87 MG glioma xenograft",5.99 ± 2.93
CSCC[C@H](NC(=O)[C@H](CC(C)C)NC(=O)[C@H](Cc1c[nH]cn1)NC(=O)CNC(=O)[C@@H](NC(=O)[C@H](C)NC(=O)[C@H](Cc1c[nH]c2ccccc12)NC(=O)[C@H](CCC(N)=O)NC(=O)CCCCCNC(=O)CNC(=O)CNC(=O)CNC(=O)CSC(C)=O)C(C)C)C(N)=O [technetium-99m labelled],"Swiss mouse, pancreas","intravenous, 18.5 MBq, 90 min",1.67 ± 0.33
N=C(N)NCCC[C@@H]1NC(=O)[C@H](CCCCNC(=O)CCOCCOCCOCCOCCNC(=O)CN2CCN(CC(=O)O)CCN(CC(=O)O)CCN(CC(=O)O)CC2)NC(=O)[C@@H](Cc2ccccc2)NC(=O)[C@H](CC(=O)O)NC(=O)CNC1=O [indium-111 labelled],"female athymic nude mice, intestine","intravenous, 3 µCi, 4 h, U-87 MG glioma xenograft",0.91 ± 0.16
CSCC[C@H](NC(=O)[C@H](CC(C)C)NC(=O)[C@H](Cc1c[nH]cn1)NC(=O)CNC(=O)[C@@H](NC(=O)[C@H](C)NC(=O)[C@H](Cc1c[nH]c2ccccc12)NC(=O)[C@H](CCC(N)=O)NC(=O)CNC(=O)[C@H](CO)NC(=O)CNC(=O)CCCCCCCNC(=O)CCC(=O)Nc1ccc(CNC23CNCCNCC(N)(CNCCNC2)CNCCNC3)cc1)C(C)C)C(N)=O [copper-64 labelled],"female SCID mice, PC-3 xenograft, spleen","intravenous, 0.6 MBq, 4 h",1.07 ± 0.066
